Measured values from different studies.
Each line is one published result; not all experiments were run side by side. ± gives the spread as reported.
Target: Albumin (ALB, Homo sapiens, UniProt P02768)

With `O=C(Nc1ccnc(C(F)(F)F)c1)Nc1cccc2c1OC(F)(F)O2` the unbound fraction was 0.03 (HSA column HPLC).
`Nc1cccc2c1CN(C1CCC(=O)NC1=O)C2=O` (stereo not drawn) gave a fraction unbound of 0.938 (equilibrium dialysis; human serum albumin 50 mg/mL; 6 h, 37 °C).
`O=C1NC2(CCS(=O)(=O)CC2)C(=O)N1c1ccc(F)c(C(F)(F)F)c1` gave an unbound fraction of 0.748.
`COc1cc(-c2[o+]c3cc(O)cc(O)c3cc2O[C@@H]2O[C@H](CO)[C@@H](O)[C@H](O)[C@H]2O)cc(O)c1O` has a Kd of 69.1 ± 4.58 µM (binding, fluorescence quenching; pH 7, 40 °C, HSA 2 µM).
`O=C1CCC(N2C(=O)c3cccc(NCC(=O)OCCCCc4cn(CCCCCCN5CCc6c(c7ccccc7n6Cc6ccc(C(=O)NO)cc6)C5)nn4)c3C2=O)C(=O)N1` (stereo not drawn) has a fraction unbound of 0.033 (HPLC on immobilised albumin column).
For `OC[C@H]1O[C@@H](Oc2cc3c(O)cc(O)cc3[o+]c2-c2cc(O)c(O)c(O)c2)[C@H](O)[C@@H](O)[C@@H]1O`, the λmax was > 630 nm (visible absorption spectroscopy; acetonitrile–HSA system; 50 µM, pH 7, added: HSA 200 µM).
For `Cc1nc2cccc(N)c2c(=O)n1C1CCC(=O)NC1=O` (stereo not drawn), the fraction unbound was 0.794 (equilibrium dialysis; human serum albumin 50 mg/mL; 6 h, 37 °C).
`CC1(C)NC(=O)N(c2ccc(F)c(F)c2)C1=O` has an unbound fraction of 0.873.
With `O=S(=O)(c1ccc(F)cc1)N1CCNCC1COc1ccc2c(c1)OCO2` (stereo not drawn) the fraction unbound was ~0.1 (HPLC retention on immobilised albumin; human serum albumin column).
`CC1(C(F)(F)F)NC(=O)N(c2ccc(F)c(C(F)(F)F)c2)C1=O` (stereo not drawn) gave a fraction unbound of 0.085 (human plasma).
With `Nc1cccc2c1C(=O)N(C1CCC(=O)NC1=O)C2=O` (stereo not drawn) the fraction unbound was 0.704 (equilibrium dialysis; human serum albumin 50 mg/mL; 6 h, 37 °C).
With `CN(CCCCCCNC(=O)COc1ccc(C2CCC(=O)NC2=O)cc1)Cc1cn(Cc2ccc(C(=O)NO)cc2)c2ccccc12` (stereo not drawn) the fraction unbound was 0.039 (HPLC on immobilised albumin column).
For `CCOc1ccc(-c2nc3ccc(-c4nc5ccc(N6CCN(C)CC6)cc5[nH]4)cc3[nH]2)cc1`, “fluorescence quantum yield” read 0.082 ± 0.003 (PBS; 1 µM, 1 h, added: 25 mg/mL albumin).
With `OC[C@H]1O[C@@H](Oc2cc3c(O)cc(O)cc3[o+]c2-c2ccc(O)c(O)c2)[C@H](O)[C@@H](O)[C@@H]1O` the Kd was 30.6 ± 5.32 µM (binding, fluorescence quenching; pH 7, 40 °C, HSA 2 µM).
For `Cc1cc(NC(=O)Nc2ccc3c(c2)OC(F)(F)O3)cc(C(F)(F)F)n1`, the unbound fraction was 0.015 (HSA column HPLC).
With `CC1(C)NC(=O)N(c2cccc(C(F)(F)F)n2)C1=O` the unbound fraction was 0.904.
With `O=C(CNc1cccc2c1C(=O)N(C1CCC(=O)NC1=O)C2=O)NCCCCCCN1CCc2c(c3ccccc3n2Cc2ccc(C(=O)NO)cc2)C1` (stereo not drawn) the fraction unbound was 0.033 (HPLC on immobilised albumin column).
With `CC1(C)NC(=O)N(c2ccc(F)c(OC(F)(F)F)c2)C1=O` the unbound fraction was 0.483.
With `COc1cc(-c2[o+]c3cc(O)cc(O)c3cc2O[C@@H]2O[C@H](CO)[C@@H](O)[C@H](O)[C@H]2O)ccc1O` the Kd was 85.2 ± 8.86 µM (binding, fluorescence quenching; pH 7, 40 °C, HSA 2 µM).
The unbound fraction of `O=C1NC(CF)(CF)C(=O)N1c1ccc(F)c(C(F)(F)F)c1` is reported as 0.271.
`OC[C@H]1O[C@@H](Oc2cc3c(O)cc(O)cc3[o+]c2-c2ccc(O)cc2)[C@H](O)[C@@H](O)[C@@H]1O` gave a Kd of 17.9 ± 3.53 µM (binding, visible absorption spectroscopy; pH 7, added: HSA 200 µM).
`Cc1cc(C)c(CNC(=O)c2cc(Cl)c3c(c2C)O[C@@](C)([C@H]2CC[C@H](N(C)C)CC2)O3)c(=O)[nH]1` has an unbound fraction of 0.64 (ultracentrifugation; 4% human serum albumin solution; 5000 ng/mL, 160 min).
`Cc1cc(N2C(=O)NC(C)(C)C2=O)cc(C(F)(F)F)n1` has an unbound fraction of 0.795.
`Fc1ccc(N2CCNCC2COc2ccc3ccccc3c2)cc1` (stereo not drawn) gave a fraction unbound of < 0.02 (HPLC retention on immobilised albumin; human serum albumin column).

For quick reference, copied from above:
`O=C1CCC(N2C(=O)c3cccc(NCC(=O)OCCCCc4cn(CCCCCCN5CCc6c(c7ccccc7n6Cc6ccc(C(=O)NO)cc6)C5)nn4)c3C2=O)C(=O)N1` (stereo not drawn) has a fraction unbound of 0.033 (HPLC on immobilised albumin column).
`Cc1cc(N2C(=O)NC(C)(C)C2=O)cc(C(F)(F)F)n1` has an unbound fraction of 0.795.
